Published values pooled from the literature.
Every numbered part comes from another study and shows a few of its results, in no order.
Chain of UniProt P42336 (whole entry, unmodified, looked up): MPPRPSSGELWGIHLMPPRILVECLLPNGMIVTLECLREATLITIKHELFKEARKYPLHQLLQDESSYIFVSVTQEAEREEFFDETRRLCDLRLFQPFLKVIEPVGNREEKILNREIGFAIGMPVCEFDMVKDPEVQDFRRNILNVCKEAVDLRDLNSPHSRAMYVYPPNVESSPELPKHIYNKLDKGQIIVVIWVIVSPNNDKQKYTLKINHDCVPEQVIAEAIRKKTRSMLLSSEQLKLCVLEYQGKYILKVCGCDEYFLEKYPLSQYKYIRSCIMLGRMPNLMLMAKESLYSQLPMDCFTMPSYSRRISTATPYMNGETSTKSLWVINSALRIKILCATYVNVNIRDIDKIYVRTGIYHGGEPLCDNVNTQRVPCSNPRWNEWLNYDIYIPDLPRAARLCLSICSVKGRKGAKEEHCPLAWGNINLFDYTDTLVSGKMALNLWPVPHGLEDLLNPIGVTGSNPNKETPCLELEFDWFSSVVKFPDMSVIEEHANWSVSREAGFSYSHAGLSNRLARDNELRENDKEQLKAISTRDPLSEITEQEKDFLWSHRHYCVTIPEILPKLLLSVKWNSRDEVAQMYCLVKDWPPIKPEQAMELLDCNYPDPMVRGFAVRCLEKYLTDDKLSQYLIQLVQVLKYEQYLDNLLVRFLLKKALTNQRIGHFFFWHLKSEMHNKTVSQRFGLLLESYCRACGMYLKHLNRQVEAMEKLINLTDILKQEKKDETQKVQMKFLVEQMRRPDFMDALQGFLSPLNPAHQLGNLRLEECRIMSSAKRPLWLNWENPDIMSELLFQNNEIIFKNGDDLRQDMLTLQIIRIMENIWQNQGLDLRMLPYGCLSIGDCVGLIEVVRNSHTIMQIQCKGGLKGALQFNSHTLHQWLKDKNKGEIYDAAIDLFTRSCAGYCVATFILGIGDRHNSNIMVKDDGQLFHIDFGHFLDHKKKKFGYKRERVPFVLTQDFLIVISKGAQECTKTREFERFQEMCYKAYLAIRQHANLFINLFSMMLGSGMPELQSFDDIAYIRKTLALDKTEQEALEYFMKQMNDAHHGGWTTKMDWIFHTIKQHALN
Chain of UniProt Q9Y616 (whole entry, looked up): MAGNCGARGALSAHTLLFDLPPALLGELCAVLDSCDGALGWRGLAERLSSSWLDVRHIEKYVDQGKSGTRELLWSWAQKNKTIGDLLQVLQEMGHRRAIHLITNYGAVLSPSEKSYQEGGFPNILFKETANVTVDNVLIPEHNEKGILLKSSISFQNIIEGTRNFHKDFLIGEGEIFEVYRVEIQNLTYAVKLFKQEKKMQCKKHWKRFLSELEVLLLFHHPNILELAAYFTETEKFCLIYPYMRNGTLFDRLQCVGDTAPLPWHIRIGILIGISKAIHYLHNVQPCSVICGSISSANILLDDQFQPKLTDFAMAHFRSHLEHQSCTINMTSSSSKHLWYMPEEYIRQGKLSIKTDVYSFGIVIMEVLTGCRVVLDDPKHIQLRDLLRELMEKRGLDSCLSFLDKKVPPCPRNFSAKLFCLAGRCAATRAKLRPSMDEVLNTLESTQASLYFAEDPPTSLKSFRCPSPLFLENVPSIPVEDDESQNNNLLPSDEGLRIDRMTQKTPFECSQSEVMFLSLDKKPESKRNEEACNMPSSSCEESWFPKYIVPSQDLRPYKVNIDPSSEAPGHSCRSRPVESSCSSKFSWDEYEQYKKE
Chain of UniProt P20794 (whole entry, looked up): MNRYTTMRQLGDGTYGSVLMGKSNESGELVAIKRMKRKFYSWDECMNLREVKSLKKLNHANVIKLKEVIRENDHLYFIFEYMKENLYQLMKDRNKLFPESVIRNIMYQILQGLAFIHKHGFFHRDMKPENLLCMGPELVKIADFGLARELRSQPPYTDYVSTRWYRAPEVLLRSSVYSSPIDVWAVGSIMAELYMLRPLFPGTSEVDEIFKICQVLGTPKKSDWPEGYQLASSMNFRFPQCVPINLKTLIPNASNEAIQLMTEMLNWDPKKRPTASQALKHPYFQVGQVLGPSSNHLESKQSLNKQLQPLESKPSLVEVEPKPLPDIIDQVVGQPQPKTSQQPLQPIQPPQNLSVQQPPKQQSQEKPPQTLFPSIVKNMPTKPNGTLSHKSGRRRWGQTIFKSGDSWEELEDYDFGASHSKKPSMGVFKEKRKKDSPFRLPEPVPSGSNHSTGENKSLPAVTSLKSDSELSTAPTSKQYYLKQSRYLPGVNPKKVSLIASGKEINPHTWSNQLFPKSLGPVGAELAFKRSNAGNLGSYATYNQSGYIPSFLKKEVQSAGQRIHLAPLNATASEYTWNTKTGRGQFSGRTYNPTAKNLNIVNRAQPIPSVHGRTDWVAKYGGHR
Chain of UniProt P10721 (whole entry, unmodified, looked up): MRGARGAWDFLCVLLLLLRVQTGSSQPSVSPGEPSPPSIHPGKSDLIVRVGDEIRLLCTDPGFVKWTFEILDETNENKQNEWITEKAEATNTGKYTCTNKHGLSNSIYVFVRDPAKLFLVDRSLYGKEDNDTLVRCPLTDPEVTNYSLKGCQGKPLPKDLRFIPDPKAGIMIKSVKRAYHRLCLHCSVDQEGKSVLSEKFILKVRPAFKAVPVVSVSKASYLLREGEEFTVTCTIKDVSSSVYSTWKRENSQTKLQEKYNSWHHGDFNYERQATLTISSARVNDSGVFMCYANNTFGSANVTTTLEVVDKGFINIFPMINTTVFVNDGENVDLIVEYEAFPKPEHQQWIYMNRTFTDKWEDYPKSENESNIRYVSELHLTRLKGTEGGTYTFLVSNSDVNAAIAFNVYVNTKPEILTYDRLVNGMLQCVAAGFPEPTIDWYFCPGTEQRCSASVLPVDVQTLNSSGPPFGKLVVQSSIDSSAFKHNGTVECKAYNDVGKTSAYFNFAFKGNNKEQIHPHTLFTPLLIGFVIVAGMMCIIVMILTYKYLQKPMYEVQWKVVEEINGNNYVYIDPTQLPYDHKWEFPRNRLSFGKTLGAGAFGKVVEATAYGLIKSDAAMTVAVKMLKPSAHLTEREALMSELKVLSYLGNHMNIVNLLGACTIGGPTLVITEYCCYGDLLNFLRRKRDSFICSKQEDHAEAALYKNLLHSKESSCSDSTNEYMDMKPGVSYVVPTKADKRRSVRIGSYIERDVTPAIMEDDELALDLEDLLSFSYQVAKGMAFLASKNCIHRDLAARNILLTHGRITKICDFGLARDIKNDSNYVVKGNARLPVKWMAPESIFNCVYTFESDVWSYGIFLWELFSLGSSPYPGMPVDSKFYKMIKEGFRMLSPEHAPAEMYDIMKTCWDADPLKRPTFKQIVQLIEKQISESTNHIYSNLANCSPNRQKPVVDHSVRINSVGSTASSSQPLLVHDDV

Study 1
SMILES: CC(=O)N[C@@H](Cc1c[nH]c2ccccc12)C(=O)N[C@@H](CCC(=O)C=[N+]=[N-])C(=O)OC(C)C
Dose: dose not given
Relative to: vehicle
item: N-acetylmethionine sulfoxide; mouse, EL4 tumour-bearing, EL4 tumour — “log2 fold change”: 0.773.
For item: imidazole propionate; Mus musculus, EL4 tumour: “log2 fold change” read -0.941.
The “log2 fold change” was -0.272 (item: uridine; mouse, EL4 tumour-bearing, EL4 tumour).
For item: hydroxy-N6,N6,N6-trimethyllysine; Mus musculus, EL4 tumour: “log2 fold change” read 0.0877.
item: ascorbate; mouse, EL4 tumour, tumour — “log2 fold change”: -0.344.
item: oxalate; mouse, EL4 tumour, tumour — “log2 fold change”: 0.612.
item: 2'-deoxyadenosine; mouse, EL4 tumour-bearing, EL4 tumour — “log2 fold change”: -0.133.
The “log2 fold change” was 2.07 (item: glucose; mouse, EL4 tumour-bearing, EL4 tumour).
It gave -0.344 for “log2 fold change” (item: gamma-aminobutyrate; Mus musculus, EL4 tumour).
It gave -0.0214 for “log2 fold change” (item: histidine; mouse, EL4 tumour-bearing, EL4 tumour).
For item: indolepropionate; mouse, EL4 tumour-bearing, EL4 tumour: “log2 fold change” read 1.11.
For item: N-acetylthreonine; mouse, EL4 tumour-bearing, EL4 tumour: “log2 fold change” read 0.118.
The “log2 fold change” was 0.317 (item: N-monomethylarginine; mouse, EL4 tumour-bearing, EL4 tumour).
For item: gamma-tocotrienol; mouse, EL4 tumour-bearing, EL4 tumour: “log2 fold change” read -0.307.
For item: homoserine; mouse, EL4 tumour-bearing, EL4 tumour: “log2 fold change” read -0.705.
The “log2 fold change” was -0.824 (item: 3-methoxytyrosine; mouse, EL4 tumour-bearing, EL4 tumour).
It gave -0.752 for “log2 fold change” (metabolomics, item: 5,6-dihydrouridine; mouse, EL4 tumour).
For item: N-acetylglucosamine/N-acetylgalactosamine; mouse, EL4 tumour-bearing, EL4 tumour: “log2 fold change” read 0.165.
item: pipecolate; mouse, EL4 tumour-bearing, EL4 tumour — “log2 fold change”: -0.512.
The “log2 fold change” was -0.297 (item: 4-imidazoleacetate; mouse, EL4 tumour-bearing, EL4 tumour).

Study 2
Target: Calcium/calmodulin-dependent protein kinase type II subunit alpha (CAMK2A, Homo sapiens, UniProt Q9UQM7)
Chain of UniProt Q9UQM7 (whole entry, looked up): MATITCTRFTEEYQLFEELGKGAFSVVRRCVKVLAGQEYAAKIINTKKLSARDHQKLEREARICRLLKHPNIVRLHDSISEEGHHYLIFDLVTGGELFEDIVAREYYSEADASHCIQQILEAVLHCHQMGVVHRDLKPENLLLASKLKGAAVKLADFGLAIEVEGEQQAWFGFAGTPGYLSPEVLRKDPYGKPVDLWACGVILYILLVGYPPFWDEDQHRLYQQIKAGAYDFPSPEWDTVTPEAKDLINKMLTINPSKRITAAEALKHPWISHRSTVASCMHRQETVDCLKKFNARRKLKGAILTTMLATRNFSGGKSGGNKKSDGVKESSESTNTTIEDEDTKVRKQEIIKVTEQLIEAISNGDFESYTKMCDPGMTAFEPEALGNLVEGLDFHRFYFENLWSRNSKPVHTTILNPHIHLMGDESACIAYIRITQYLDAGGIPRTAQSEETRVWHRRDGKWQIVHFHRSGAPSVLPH
Observed: enzyme activity
Action: inhibitor
Tested at: 10 µM
The inhibition of `COC(=O)C1CCCCC1` is reported as -3%.
`CC(=O)OC[C@]12[C@H](OC(C)=O)[C@H](OC(C)=O)[C@@H]3[C@@H](OC(C)=O)[C@@]14O[C@@]3(C)COC(=O)c1cccnc1CC[C@H](C)C(=O)O[C@@H]([C@H](OC(=O)c1ccoc1)[C@@H]2OC(C)=O)[C@]4(C)O` gave an inhibition of -25%.
`O=C(O)Cc1cc(I)c(Oc2cc(I)c(O)c(I)c2)c(I)c1` has an inhibition of -24%.
`CCCCCCCC/C=C\CCCCCCCC(=O)OC` has an inhibition of 3%.
For `C[C@@H]1O[C@@H](O[C@@H]2[C@@H](O)[C@H](OCCc3ccc(O)c(O)c3)O[C@H](CO[C@@H]3O[C@H](CO)[C@@H](O)[C@H](O)[C@H]3O)[C@H]2OC(=O)/C=C/c2ccc(O)c(O)c2)[C@H](O)[C@H](O)[C@H]1O`, the inhibition was -19%.
`NC(=O)NO` has an inhibition of -12%.
With `CC(=O)O[C@]1(C(C)=O)CC[C@H]2[C@@H]3C[C@H](C)C4=CC(=O)CC[C@]4(C)[C@H]3CC[C@@]21C` the inhibition was 7%.
With `C[C@H](CCC(=O)NCCS(=O)(=O)O)[C@H]1CC[C@H]2[C@@H]3C[C@H](O)[C@@H]4C[C@H](O)CC[C@]4(C)[C@H]3CC[C@]12C` the inhibition was -16%.
`O=C(O)c1cc(O)cc(O)c1` gave an inhibition of 10%.
With `CC/C=C/C=C\CCCCCCCCOC(C)=O` the inhibition was -30%.
The inhibition of `OCCc1c[nH]c2ccc(O)cc12` is reported as -20%.
The inhibition of `CC1=C2C(=O)O[C@@H](c3ccoc3)[C@]2(C)CCC1` is reported as -4%.
`O=C(/C=C/c1ccc(O)c(O)c1)OC1(C(=O)O)C[C@@H](O)C(O)[C@H](O)C1` (stereo partly shown) has an inhibition of 34%.
With `CCCCN(CCCC)C(=O)CN1C[C@H](c2ccc3c(c2)OCO3)[C@@H](C(=O)O)[C@@H]1c1ccc(OC)cc1` the inhibition was -13%.
`COc1ccc2[nH]cc(CCNC(C)=O)c2c1` gave an inhibition of 4%.
`CCC(=O)O[C@@H]1CC(=O)O[C@H](C)C/C=C/C=C/[C@H](O)[C@H](C)C[C@H](CC=O)[C@H](O[C@@H]2O[C@H](C)[C@@H](O[C@H]3C[C@@](C)(O)[C@@H](OC(=O)CC)[C@H](C)O3)[C@H](N(C)C)[C@H]2O)[C@H]1OC` gave an inhibition of -4%.
With `C[N+]1(C)[C@@H]2CC[C@H]1C[C@@H](OC(=O)C(O)c1ccccc1)C2` (stereo partly shown) the inhibition was -10%.
With `Nc1nnc(-c2cccc(Cl)c2Cl)c(N)n1` the inhibition was 1%.
`CCCCCCCCCCCCCCCC(=O)NCC(=O)O` has an inhibition of -13%.
For `CCCCCN=C(N)N/N=C/c1c[nH]c2ccc(OC)cc12`, the inhibition was -4%.
`c1ccc2c(Cc3c[nH]c4ccccc34)c[nH]c2c1` gave an inhibition of 26%.

Study 3
Target: Homeodomain-interacting protein kinase 1 (HIPK1, Homo sapiens, UniProt Q86Z02)
Chain of UniProt Q86Z02 (whole entry, looked up): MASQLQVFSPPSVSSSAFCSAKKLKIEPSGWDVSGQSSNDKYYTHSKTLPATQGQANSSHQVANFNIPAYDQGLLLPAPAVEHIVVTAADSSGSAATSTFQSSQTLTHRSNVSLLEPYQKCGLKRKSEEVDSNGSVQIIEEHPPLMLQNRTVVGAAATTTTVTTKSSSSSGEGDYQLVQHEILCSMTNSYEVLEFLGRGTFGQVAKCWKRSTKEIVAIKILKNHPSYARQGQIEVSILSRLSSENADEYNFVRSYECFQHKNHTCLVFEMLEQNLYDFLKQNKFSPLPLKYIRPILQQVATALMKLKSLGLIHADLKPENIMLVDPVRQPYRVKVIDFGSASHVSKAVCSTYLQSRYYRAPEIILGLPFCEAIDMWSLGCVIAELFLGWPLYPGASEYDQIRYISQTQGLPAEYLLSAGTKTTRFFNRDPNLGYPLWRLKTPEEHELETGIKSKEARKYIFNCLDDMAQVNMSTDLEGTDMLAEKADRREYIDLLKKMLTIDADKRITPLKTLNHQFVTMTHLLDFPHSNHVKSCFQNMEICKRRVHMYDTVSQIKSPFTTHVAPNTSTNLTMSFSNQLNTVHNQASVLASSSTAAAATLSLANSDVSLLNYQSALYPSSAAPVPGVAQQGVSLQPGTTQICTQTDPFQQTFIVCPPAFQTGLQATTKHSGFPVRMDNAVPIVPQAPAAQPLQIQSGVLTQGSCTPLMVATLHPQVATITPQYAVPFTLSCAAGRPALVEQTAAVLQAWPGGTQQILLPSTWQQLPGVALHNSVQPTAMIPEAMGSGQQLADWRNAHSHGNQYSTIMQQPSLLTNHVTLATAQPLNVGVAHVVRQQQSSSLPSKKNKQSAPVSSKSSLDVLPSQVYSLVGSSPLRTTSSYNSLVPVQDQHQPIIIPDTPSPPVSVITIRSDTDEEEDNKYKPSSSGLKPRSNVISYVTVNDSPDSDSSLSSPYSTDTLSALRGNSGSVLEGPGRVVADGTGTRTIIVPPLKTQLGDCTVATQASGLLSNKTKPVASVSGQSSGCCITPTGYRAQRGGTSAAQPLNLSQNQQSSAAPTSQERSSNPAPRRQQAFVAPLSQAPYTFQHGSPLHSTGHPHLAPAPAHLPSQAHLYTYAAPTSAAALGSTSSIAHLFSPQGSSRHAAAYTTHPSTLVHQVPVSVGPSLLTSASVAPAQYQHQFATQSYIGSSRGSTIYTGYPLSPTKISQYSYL
Observed: enzyme activity
Action: inhibitor
Tested at: 0.5 µM
Relative to: control
With `CC(C)(C)n1nc(Cc2cccc3ccccc23)c2c(N)ncnc21` the remaining activity was 95.2%.
For `NC(=O)c1ccc(N(C(N)=O)c2c(F)cccc2F)nc1-c1ccc(F)cc1F`, the remaining activity was 100%.
The remaining activity of `N#CC(=C(N)Sc1ccc(N)cc1)c1ccccc1C(F)(F)F` is reported as 107%.
With `O=S(=O)(NCCNC/C=C/c1ccc(Br)cc1)c1cccc2cnccc12` the remaining activity was 91.4%.
The remaining activity of `CSc1nc(-c2ccnc(N[C@@H](C)c3ccccc3)c2)c(-c2ccc(F)cc2)[nH]1` (racemic) is reported as 110%.
For `CC#CC(=O)Nc1cc2c(Nc3ccc(F)c(Cl)c3)ncnc2cn1`, the remaining activity was 108%.
With `COc1ccc(S(=O)(=O)N(CCO)c2ccccc2CN(C)CC=Cc2ccc(Cl)cc2)cc1` the remaining activity was 106%.
`Cc1cc(Nc2nc(-c3ccccc3)nc3ccccc23)n[nH]1` gave a remaining activity of 96.3%.
For `CC[n+]1c(/C=C/N(C)c2ccccc2)n(-c2ccccc2)c2ccc(-c3nc4ccccc4s3)cc21`, the remaining activity was 99.5%.
`O=C1Cc2c([nH]c3ccc([N+](=O)[O-])cc23)-c2ccccc2N1` gave a remaining activity of 98.5%.
`O=C1NC(=O)C(c2c[nH]c3ccccc23)=C1c1c[nH]c2ccccc12` gave a remaining activity of 102%.
With `Oc1ccc(Nc2nc(-c3ccc(Cl)cc3)cs2)cc1` the remaining activity was 100%.
The remaining activity of `Cc1ccc(NC2=CC(=O)c3sc(C)nc3C2=O)cc1` is reported as 96.7%.
`Nc1nc(Nc2ccc(S(N)(=O)=O)cc2)nn1C(=O)c1c(F)cccc1F` has a remaining activity of 106%.
With `CCc1[nH]c(-c2ccc(OC)cc2)nc1-c1ccncc1` the remaining activity was 97.7%.
`CC(=O)c1ccc(N2CCOCC2)cc1O` gave a remaining activity of 93.9%.
`Nc1ncnc2c1cnn2-c1ccccc1` gave a remaining activity of 98.4%.
With `Fc1ccc(-c2nc3n(c2-c2ccncc2)CCS3)cc1` the remaining activity was 108%.
`COc1cc(Nc2c(C#N)cnc3cc(OCCCN4CCN(C)CC4)c(OC)cc23)c(Cl)cc1Cl` gave a remaining activity of 96.3%.
`Nc1nccc(-c2c(-c3ccc(F)cc3)ncn2C2CCNCC2)n1` has a remaining activity of 101%.
With `CCCC(=O)Oc1ccc2[nH]c(C(=O)c3cc4ccccc4[nH]3)cc2c1` the remaining activity was 101%.
`Cc1cncc2cccc(S(=O)(=O)N3CCCN(C(=O)CN)C[C@@H]3C)c12` gave a remaining activity of 99.1%.

Study 4
Compound: CS(=O)(=O)c1cc(C2(NC(=O)c3cncc4c3cnn4-c3ccc(F)cc3)CC2)ccn1
Observed: cell-free assay
Technique: competition with immobilised ligand
Tested at: 1 µM
It gave 100% for remaining binding (Megakaryocyte-associated tyrosine-protein kinase (MATK, Homo sapiens, UniProt P42679)).
Serine/threonine-protein kinase WNK2 (WNK2, Homo sapiens, UniProt Q9Y3S1) — remaining binding: 75%.
Mast/stem cell growth factor receptor Kit (KIT, Homo sapiens, UniProt P10721, L576P) — remaining binding: 100%.
Serine/threonine-protein kinase Nek2 (NEK2, Homo sapiens, UniProt P51955) — remaining binding: 93%.
For Interferon-induced, double-stranded RNA-activated protein kinase (EIF2AK2, Homo sapiens, UniProt P19525): remaining binding read 60%.
The remaining binding was 100% (Tyrosine-protein kinase Fes/Fps (FES, Homo sapiens, UniProt P07332)).
It gave 85% for remaining binding (Ribosomal protein S6 kinase alpha-4, N-terminal kinase domain (RPS6KA4, Homo sapiens, UniProt O75676)).
It gave 100% for remaining binding (Serine/threonine-protein kinase MAK (MAK, Homo sapiens, UniProt P20794)).
The remaining binding was 74% (Phosphatidylinositol 4,5-bisphosphate 3-kinase catalytic subunit alpha isoform (PIK3CA, Homo sapiens, UniProt P42336, E545K)).
It gave 91% for remaining binding (Hepatocyte growth factor receptor (MET, Homo sapiens, UniProt P08581, Y1235D)).
Phosphatidylinositol 4,5-bisphosphate 3-kinase catalytic subunit alpha isoform (PIK3CA, Homo sapiens, UniProt P42336) — remaining binding: 100%.
Epidermal growth factor receptor (EGFR, Homo sapiens, UniProt P00533, del747-750/T751S) — remaining binding: 100%.
For Serine/threonine-protein kinase 25 (STK25, Homo sapiens, UniProt O00506): remaining binding read 100%.
STE20-like serine/threonine-protein kinase (SLK, Homo sapiens, UniProt Q9H2G2) — remaining binding: 100%.
Fibroblast growth factor receptor 3 (FGFR3, Homo sapiens, UniProt P22607, G697C) — remaining binding: 91%.
The remaining binding was 61% (Mitogen-activated protein kinase kinase kinase 14 (MAP3K14, Homo sapiens, UniProt Q99558)).
For Interleukin-1 receptor-associated kinase 3 (IRAK3, Homo sapiens, UniProt Q9Y616): remaining binding read 59%.
The remaining binding was 100% (Ephrin type-B receptor 4 (EPHB4, Homo sapiens, UniProt P54760)).
It gave 90% for remaining binding (Serine/threonine-protein kinase haspin (HASPIN, Homo sapiens, UniProt Q8TF76)).
It gave 100% for remaining binding (Receptor-type tyrosine-protein kinase FLT3 (FLT3, Homo sapiens, UniProt P36888, K663Q)).
For Dual specificity mitogen-activated protein kinase kinase 7 (MAP2K7, Homo sapiens, UniProt O14733): remaining binding read 91%.
For Calcium/calmodulin-dependent protein kinase type 1B (PNCK, Homo sapiens, UniProt Q6P2M8): remaining binding read 78%.
For Serine/threonine-protein kinase Nek3 (NEK3, Homo sapiens, UniProt P51956): remaining binding read 100%.
Ephrin type-A receptor 1 (EPHA1, Homo sapiens, UniProt P21709) — remaining binding: 100%.
It gave 100% for remaining binding (Proto-oncogene tyrosine-protein kinase receptor Ret (RET, Homo sapiens, UniProt P07949)).
